Assay results gathered from unrelated publications.
Several values in a cell are separate wells, animals, samples, runs or records.
Target: MAP kinase-activated protein kinase 2 (MAPKAPK2, Homo sapiens, UniProt P49137)
Sequence of UniProt P49137 (whole entry, looked up): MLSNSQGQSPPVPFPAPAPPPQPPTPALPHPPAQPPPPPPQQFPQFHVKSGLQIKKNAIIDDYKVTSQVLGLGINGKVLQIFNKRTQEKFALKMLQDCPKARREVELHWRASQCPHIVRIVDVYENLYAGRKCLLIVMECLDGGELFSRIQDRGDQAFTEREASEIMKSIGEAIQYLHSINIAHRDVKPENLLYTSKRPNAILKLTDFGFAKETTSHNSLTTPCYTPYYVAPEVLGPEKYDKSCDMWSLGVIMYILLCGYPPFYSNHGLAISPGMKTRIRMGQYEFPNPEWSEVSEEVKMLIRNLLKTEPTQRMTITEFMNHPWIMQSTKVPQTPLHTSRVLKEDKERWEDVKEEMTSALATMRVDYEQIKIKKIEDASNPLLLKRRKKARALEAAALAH

NC(=O)C[C@H]1CCc2sc3ncnc(O[C@H]4CC[C@H](N5CCOCC5)CC4)c3c21
inhibition (enzyme activity, inhibitor; 10 µM): 1%

CNC(=O)C[C@H](Cc1ccc(C#N)cc1)NC(=O)c1cc(-c2ccc(CN[C@H](C)c3ccc(C)cc3)o2)ccc1Cl
activity vs control (enzyme activity, inhibitor; 1 µM): 111%

O=C(O)CCC(=O)c1cccc(NS(=O)(=O)c2c[nH]c3ncccc23)c1
remaining activity (kinase activity, radiometric; 10 µM): 101%

CNS(=O)(=O)Nc1nccc(Cc2c(C)c3ccc(Oc4ncccc4F)cc3oc2=O)c1F
remaining binding (binding, competition with immobilised ligand; 10 µM): 100%

Cc1ccc(C)c(-c2ccc3nc(NC(=O)C4CCCCC4)nn3c2)c1
remaining activity (enzyme activity, Dundee kinase panel; 10 µM): 102%

COc1c(OCCCN2CCOCC2)ccc2c1N=C(NC(=O)c1cnc(N)nc1)N1CCN=C21
remaining activity (kinase activity, inhibitor; 1 µM; reference: untreated control): 102%

Cc1cccc(-c2ccc3nc(NC(=O)C4CCCCC4)nn3c2)c1
remaining activity (enzyme activity, Dundee kinase panel; 10 µM): 105%

COc1cc(Nc2nccc(-c3cnn4nc(OC)ccc34)n2)cc(C(F)(F)F)c1
remaining binding (binding, competition with immobilised ligand; 1 µM): 100%

Cc1cnc2nc1Nc1cccc(c1)COC/C=C/COCc1cc(ccc1OCCN1CCOCC1)N2
remaining binding (binding; 0.1 µM): 88%

CCN1CCN(Cc2ccc(C(=O)Nc3ccc(C)c(NCc4cnc5[nH]ccc5c4OC)c3)cc2C(F)(F)F)CC1
remaining binding (binding, competition with immobilised ligand; 1 µM): 100%

C=C1CCCCCCCCCC(CO)C1=O (stereo not drawn)
remaining binding (cell-free assay, competition with immobilised ligand; 10 µM): 100%

CN1CCN(Cc2ccc(-c3ccc(CO[C@H]4CCC[C@@H]4NC(=O)c4cc(-c5cnn(C)c5)cnc4N)cc3)cc2)CC1
inhibition (enzyme activity, inhibitor; 0.1 µM): 3% and 8%

C=CC(=O)Nc1cccc(-c2cnc3[nH]cc(C(=O)NC(C)(C)C)c3n2)c1
inhibition (kinase activity; 0.1 µM): 3% and 9%

O=C(Cc1ccc(OCc2ccccc2)cc1)NC1(C(=O)O)CCN(C(=O)c2ccc(-c3cccc(Cl)c3)cc2)CC1
activity vs control (enzyme activity, inhibitor; 10 µM): 106%

Cc1cccc(O[C@H]2CCC[C@@H](C(C)CNCc3ccncc3)C2)c1 (relative stereo)
inhibition (enzyme activity, inhibitor; 10 µM): -12%

CCn1cc(C(=O)O)c(=O)c2c(N)c(F)c(NC3CCCCC3)cc21
inhibition (kinase activity; 0.1 µM, with: ATP at Km): 1.8%

C=CC(=O)N1CCCC(n2c(=O)c3ncccc3n(Cc3ccc(Oc4ccccc4)cc3)c2=O)C1 (stereo not drawn)
remaining binding (cell-free assay, competition with immobilised ligand; 1 µM): 100%

O=C=[N][Ru-4]123([n]4c5ccc(O)cc5c5c6c(c7cc(F)c[n+]1c7c54)C(=O)NC6=O)[S+]1CC[S+]2CC[S+]3CC1 (stereo not drawn)
remaining activity (enzyme activity; 100 nM, human enzyme, with: 10 µM ATP; reference: untreated): 115%

CC(C)=CC1OC(C)(C)C2C=C3C(=O)C(Cl)=CC(O)C3C3C(O)C4OC4C(=O)C132 (stereo not drawn)
remaining binding (cell-free assay, competition with immobilised ligand; 10 µM): 96%

CN1CCN(Cc2ccc(NC(=O)c3cccc(C#Cc4cnc(N)c5ncccc45)c3)cc2C(F)(F)F)CC1
remaining binding (cell-free assay, competition with immobilised ligand; 50 nM): 100%

COc1ccc(NC(=O)Nc2ccc3c(c2)C(=O)N(C(C)CO)CC(C)C(CN(C)Cc2ccc4c(c2)OCO4)O3)cc1 (stereo not drawn)
remaining activity (kinase activity, KinaseProfiler; 0.03 µM, species human; reference: control): 96%

Repeated from above:
Cc1cnc2nc1Nc1cccc(c1)COC/C=C/COCc1cc(ccc1OCCN1CCOCC1)N2
remaining binding (binding; 0.1 µM): 88%

CNC(=O)C[C@H](Cc1ccc(C#N)cc1)NC(=O)c1cc(-c2ccc(CN[C@H](C)c3ccc(C)cc3)o2)ccc1Cl
activity vs control (enzyme activity, inhibitor; 1 µM): 111%
